Experimental data collected from several papers.
Each numbered part is a random draw from the data of one study; scales do not carry over between parts. Changes are numbered by the printed parent chain.
Chain of UniProt Q969T4 (whole entry, looked up): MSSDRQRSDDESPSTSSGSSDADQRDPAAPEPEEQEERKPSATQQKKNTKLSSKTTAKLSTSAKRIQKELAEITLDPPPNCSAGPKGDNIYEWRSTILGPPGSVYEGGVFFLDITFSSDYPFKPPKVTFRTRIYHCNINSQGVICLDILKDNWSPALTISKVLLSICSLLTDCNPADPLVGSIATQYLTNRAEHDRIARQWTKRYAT
Chain of UniProt P63146 (whole entry, looked up): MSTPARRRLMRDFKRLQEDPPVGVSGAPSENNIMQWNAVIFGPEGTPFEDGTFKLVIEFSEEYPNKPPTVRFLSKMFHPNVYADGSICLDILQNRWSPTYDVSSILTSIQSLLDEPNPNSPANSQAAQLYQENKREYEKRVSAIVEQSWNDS
Chain of UniProt Q9C0C9 (whole entry, looked up): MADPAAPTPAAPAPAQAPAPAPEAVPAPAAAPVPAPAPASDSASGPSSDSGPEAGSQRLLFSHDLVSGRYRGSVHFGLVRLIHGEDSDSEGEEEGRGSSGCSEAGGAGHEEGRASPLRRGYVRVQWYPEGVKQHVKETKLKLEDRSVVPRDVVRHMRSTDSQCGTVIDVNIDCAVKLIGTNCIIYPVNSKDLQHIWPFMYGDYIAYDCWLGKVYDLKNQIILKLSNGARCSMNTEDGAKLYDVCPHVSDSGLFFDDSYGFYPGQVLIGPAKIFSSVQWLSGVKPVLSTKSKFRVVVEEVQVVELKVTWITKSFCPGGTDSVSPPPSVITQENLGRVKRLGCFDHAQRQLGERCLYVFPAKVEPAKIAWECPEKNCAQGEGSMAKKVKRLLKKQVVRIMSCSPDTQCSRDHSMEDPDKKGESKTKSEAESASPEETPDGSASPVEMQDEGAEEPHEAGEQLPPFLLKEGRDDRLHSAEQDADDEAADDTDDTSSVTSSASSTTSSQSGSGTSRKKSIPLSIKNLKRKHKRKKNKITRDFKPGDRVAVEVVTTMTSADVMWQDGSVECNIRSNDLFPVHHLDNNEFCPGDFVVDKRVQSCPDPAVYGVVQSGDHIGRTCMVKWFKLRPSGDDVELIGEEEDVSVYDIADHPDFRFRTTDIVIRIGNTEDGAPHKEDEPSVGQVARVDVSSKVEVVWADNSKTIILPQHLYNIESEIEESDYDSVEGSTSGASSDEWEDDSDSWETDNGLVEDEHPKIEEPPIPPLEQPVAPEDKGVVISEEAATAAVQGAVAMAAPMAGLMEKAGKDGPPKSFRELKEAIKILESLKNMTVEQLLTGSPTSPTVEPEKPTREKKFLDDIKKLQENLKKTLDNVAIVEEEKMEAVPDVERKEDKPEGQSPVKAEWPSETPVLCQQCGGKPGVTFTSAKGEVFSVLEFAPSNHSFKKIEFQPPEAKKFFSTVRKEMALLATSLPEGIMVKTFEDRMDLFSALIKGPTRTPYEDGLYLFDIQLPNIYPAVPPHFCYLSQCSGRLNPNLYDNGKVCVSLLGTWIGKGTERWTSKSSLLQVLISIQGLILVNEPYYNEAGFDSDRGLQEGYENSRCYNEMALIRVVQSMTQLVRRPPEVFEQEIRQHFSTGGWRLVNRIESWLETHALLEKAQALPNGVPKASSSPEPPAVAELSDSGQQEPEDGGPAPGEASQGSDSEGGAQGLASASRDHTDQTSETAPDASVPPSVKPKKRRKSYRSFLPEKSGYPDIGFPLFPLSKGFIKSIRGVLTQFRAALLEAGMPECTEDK
Chain of UniProt Q9Y385 (whole entry, looked up): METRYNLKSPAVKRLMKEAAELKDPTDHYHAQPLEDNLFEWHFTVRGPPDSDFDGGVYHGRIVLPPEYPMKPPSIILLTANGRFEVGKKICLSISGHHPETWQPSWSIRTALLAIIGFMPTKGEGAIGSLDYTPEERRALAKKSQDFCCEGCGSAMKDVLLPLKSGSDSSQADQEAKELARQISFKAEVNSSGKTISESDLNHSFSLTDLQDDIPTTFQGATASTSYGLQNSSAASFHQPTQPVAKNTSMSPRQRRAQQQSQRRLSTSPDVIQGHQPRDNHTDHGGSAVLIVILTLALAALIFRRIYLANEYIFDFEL
Chain of UniProt P51957 (whole entry, looked up): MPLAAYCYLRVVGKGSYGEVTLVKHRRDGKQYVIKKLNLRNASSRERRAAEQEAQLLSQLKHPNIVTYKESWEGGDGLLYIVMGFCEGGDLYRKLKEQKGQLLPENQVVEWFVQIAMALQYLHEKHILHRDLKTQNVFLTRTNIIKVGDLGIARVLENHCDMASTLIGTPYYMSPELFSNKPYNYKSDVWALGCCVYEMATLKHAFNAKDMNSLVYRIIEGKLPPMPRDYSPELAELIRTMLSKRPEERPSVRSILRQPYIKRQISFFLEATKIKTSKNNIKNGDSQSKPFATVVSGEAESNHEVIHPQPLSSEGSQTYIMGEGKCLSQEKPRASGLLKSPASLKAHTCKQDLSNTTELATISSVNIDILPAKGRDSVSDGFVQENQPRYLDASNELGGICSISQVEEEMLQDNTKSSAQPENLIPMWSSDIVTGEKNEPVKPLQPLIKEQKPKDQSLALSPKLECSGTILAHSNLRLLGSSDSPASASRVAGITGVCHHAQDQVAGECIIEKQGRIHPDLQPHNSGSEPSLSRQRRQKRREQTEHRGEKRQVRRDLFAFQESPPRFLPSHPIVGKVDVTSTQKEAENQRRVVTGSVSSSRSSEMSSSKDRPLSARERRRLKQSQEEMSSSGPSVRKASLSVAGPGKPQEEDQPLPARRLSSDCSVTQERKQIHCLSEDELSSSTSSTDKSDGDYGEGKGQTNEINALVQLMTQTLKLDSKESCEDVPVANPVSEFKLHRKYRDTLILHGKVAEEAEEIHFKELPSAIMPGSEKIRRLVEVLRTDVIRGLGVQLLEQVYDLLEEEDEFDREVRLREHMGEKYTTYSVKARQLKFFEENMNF
Chain of UniProt Q9Y6M4 (whole entry, looked up): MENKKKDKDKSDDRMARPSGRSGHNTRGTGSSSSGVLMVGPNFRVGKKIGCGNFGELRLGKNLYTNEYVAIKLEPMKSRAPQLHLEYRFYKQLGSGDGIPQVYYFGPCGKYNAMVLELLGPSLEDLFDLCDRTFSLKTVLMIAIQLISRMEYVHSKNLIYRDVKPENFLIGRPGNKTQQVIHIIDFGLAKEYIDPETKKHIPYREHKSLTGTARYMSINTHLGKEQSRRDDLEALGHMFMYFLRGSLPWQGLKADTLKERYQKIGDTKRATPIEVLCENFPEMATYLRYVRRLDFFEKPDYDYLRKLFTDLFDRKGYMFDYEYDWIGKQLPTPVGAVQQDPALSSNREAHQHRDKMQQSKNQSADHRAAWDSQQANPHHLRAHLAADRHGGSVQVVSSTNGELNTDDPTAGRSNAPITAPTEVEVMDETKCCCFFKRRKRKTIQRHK
Chain of UniProt P49137 (whole entry, looked up): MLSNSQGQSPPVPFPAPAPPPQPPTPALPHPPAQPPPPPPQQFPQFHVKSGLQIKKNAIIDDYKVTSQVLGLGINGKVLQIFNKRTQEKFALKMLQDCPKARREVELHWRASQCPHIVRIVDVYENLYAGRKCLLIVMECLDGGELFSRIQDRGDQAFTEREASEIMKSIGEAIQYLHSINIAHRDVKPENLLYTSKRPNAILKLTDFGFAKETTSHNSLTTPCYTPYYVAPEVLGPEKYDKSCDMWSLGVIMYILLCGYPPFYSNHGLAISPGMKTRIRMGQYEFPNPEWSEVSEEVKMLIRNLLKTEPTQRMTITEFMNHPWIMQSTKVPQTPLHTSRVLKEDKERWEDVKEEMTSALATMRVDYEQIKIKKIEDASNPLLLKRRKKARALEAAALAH
Chain of UniProt P06239 (whole entry, looked up): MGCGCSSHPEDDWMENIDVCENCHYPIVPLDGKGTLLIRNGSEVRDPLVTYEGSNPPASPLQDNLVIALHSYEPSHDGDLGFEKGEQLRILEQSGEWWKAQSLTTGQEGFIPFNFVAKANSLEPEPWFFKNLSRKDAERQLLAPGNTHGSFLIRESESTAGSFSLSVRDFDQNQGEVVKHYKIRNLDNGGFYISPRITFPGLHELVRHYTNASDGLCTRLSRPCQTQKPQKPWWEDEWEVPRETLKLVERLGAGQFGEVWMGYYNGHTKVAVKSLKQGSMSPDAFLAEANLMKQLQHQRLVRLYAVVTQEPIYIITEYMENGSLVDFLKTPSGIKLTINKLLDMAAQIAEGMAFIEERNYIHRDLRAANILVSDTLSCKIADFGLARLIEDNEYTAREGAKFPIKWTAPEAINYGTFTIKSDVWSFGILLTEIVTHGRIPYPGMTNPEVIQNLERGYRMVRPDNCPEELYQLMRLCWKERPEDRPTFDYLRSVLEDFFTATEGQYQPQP
Chain of UniProt P36896 (whole entry, looked up): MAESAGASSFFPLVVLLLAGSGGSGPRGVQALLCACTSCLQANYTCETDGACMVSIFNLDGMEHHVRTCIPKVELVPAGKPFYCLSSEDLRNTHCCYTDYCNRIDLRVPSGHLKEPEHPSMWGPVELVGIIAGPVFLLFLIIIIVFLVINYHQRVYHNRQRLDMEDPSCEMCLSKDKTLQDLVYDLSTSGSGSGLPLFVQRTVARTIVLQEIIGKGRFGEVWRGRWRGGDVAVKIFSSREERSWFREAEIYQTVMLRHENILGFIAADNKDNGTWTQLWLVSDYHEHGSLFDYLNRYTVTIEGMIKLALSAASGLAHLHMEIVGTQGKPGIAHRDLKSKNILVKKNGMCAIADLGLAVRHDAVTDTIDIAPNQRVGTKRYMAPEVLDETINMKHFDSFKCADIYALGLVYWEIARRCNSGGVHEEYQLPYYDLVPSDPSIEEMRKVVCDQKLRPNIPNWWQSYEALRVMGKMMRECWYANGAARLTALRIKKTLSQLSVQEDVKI
Chain of UniProt Q8N2K1 (whole entry, looked up): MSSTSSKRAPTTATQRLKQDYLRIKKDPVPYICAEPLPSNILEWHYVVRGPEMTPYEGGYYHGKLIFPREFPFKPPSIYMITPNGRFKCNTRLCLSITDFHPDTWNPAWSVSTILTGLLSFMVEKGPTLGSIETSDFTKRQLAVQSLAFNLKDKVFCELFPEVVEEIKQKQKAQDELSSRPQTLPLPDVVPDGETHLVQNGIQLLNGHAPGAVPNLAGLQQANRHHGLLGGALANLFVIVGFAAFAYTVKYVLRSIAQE

Study 1
Compound: CS(=O)(=O)c1cc(C2(NC(=O)c3cncc4c3cnn4-c3ccc(F)cc3)CC2)ccn1
Observed: cell-free assay
Method: competition with immobilised ligand
Tested at: 1 µM
Quantity: remaining binding
NTRK1 (Homo sapiens, UniProt P04629): 96%
MET (Homo sapiens, UniProt P08581, M1250T): 82%
NEK4 (Homo sapiens, UniProt P51957): 100%
MARK1 (Homo sapiens, UniProt Q9P0L2): 100%

Study 2
Target: CCND2, cyclin fold, Cln2 fusion (human)
Method: yeast growth competition, sequencing
Matrix: yeast
Setting: weak parent motif
Relative to: not given
Reading: higher = stronger binding
Quantity: normalised enrichment score
Parent: MASTL docking peptide (human); PMIAKNLMCELDE; partner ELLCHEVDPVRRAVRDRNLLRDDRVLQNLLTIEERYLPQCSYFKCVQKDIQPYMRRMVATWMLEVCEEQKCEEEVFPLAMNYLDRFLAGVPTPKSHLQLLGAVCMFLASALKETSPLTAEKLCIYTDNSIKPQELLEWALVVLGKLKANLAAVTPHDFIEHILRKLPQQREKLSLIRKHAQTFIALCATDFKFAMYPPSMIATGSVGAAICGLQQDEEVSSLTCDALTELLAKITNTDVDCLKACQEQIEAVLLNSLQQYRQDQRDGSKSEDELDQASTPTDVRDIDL
M2G: 0.0415
L7W: 0.144
N6D: 0.072
L7D: -0.0689
K5M: 0.226
A4F: 0.027
L11V: 0.0559
D12N: 0.0344

Study 3
Molecule: B1 (TRAF5 RING domain)
Method: yeast two-hybrid
Matrix: yeast
Setting: mostly zero background
Relative to: not given
Reading: higher = stronger interaction
Quantity: lacZ reporter activity
B1: TRAF5 RING domain (UniProt O00463); chain FVERLEERYKCAFCHSVLHNPHQTGCGHRFCQHCILSLRELNTVPICPVDKEVIKSQEVFK
UBE2J1 UBC core domain (UniProt Q9Y385): 0
UBE2L3 UBC core domain (UniProt P68036): 0
UBE2J2 UBC core domain (UniProt Q8N2K1): 0
UBE2T UBC core domain (UniProt Q9NPD8): 0
UBE2B UBC core domain (UniProt P63146): 0
UBE2Z UBC core domain (UniProt Q9H832): 0
UBE2O UBC core domain (UniProt Q9C0C9): 0
UBE2E3 UBC core domain (UniProt Q969T4): 0

Study 4
SMILES: CCN(CC)CCCCN1c2ccccc2Oc2ccc(Cl)cc21
Observed: enzyme activity
Mode: inhibitor
Tested at: 0.5 µM
Relative to: control
Quantity: remaining activity
FRK (Homo sapiens, UniProt P42685): 98.4%
ARAF (Homo sapiens, UniProt P10398): 103%
MAPKAPK2 (Homo sapiens, UniProt P49137): 97.2%
LCK (Homo sapiens, UniProt P06239): 94.6%
NEK1 (Homo sapiens, UniProt Q96PY6): 101%
RPS6KA2 (Homo sapiens, UniProt Q15349): 88%
ACVR1B (Homo sapiens, UniProt P36896): 105%
MAP3K5 (Homo sapiens, UniProt Q99683): 106%
CSNK1G2 (Homo sapiens, UniProt P78368): 103%
TBK1 (Homo sapiens, UniProt Q9UHD2): 86.3%
MST1R (Homo sapiens, UniProt Q04912): 112%
MAP3K14 (Homo sapiens, UniProt Q99558): 95.6%
CSNK1G3 (Homo sapiens, UniProt Q9Y6M4): 78.3%
ULK2 (Homo sapiens, UniProt Q8IYT8): 103%

For quick reference, copied from above (study 2):
L11V: 0.0559
L7D: -0.0689
D12N: 0.0344
